Published values of several laboratories.
Each numbered part is a random draw from the data of one study; scales do not carry over between parts.

Series 1
Target: Transcription factor Sp1 (SP1, Homo sapiens, UniProt P08047, residues 1-785, full length assumed)
Sequence of UniProt P08047 (whole entry, looked up): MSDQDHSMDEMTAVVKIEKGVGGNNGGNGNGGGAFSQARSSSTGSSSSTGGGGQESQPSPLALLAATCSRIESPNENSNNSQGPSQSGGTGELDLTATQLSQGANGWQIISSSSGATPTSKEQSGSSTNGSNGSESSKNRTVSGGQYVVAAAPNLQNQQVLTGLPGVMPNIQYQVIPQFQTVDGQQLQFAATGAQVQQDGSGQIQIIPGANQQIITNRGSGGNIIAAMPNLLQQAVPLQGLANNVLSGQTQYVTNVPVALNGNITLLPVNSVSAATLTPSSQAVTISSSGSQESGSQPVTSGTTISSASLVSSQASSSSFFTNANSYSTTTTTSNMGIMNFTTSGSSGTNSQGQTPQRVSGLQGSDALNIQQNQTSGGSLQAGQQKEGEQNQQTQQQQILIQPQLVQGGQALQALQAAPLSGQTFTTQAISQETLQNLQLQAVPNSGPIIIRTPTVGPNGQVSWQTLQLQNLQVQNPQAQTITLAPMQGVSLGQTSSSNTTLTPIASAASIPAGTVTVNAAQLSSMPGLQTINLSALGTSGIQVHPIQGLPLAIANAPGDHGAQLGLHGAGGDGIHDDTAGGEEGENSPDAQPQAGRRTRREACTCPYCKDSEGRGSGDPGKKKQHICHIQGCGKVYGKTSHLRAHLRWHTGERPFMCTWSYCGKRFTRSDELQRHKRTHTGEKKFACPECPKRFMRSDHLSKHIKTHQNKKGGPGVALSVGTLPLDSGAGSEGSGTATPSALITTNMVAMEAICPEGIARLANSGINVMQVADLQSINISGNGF
Method: protein-binding microarray
Form: double-stranded DNA, one strand shown
Matrix: in vitro
Concentration: not given
Notes: k-mer, scored over probes, only values ≥0.25
Direction: higher = stronger binding
Strand | E-score
GAGGGGCA | 0.315
CAAACCCC | 0.276
GTACTACA | 0.28
CCCCGTAC | 0.274
TAGATACA | 0.275
AACTAATA | 0.26
CATTCATA | 0.316
ACAATTGA | 0.279

Series 2
Target: Ras GTPase-activating protein-binding protein 1, full length (G3BP1, Homo sapiens, UniProt Q13283)
Sequence of UniProt Q13283 (whole entry, looked up): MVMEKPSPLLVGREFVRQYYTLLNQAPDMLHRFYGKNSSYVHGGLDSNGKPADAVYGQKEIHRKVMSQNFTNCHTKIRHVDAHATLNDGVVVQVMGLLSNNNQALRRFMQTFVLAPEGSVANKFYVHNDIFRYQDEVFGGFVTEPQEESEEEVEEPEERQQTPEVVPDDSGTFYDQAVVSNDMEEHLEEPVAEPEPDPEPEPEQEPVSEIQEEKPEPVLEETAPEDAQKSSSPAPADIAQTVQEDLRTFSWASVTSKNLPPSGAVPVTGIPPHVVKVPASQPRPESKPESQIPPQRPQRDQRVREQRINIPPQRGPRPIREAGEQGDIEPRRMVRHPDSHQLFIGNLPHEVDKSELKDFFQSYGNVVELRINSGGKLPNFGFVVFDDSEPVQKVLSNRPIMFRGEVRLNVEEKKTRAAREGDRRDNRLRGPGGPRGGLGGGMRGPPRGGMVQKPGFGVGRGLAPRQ
Method: RNA Bind-n-Seq
Form: RNA
Matrix: in vitro
Concentration: 200 nM
Notes: whole 134-nt RNA, ends assumed
Together with: 150 mM LiCl
Reference: input library
Direction: higher = stronger binding
Each molecule: 7-deaza-guanosine replaces G
Strand | log2 enrichment
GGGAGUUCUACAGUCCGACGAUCGUCCUGUGCUACACAUCGUAUGUACCGAAUCGGGAAAAAGGGGAAAAAGGGGAAAAAGGAAAGUAUUAUGUUACGCCGUUCGGAUCUGCAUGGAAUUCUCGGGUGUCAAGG | 0.175
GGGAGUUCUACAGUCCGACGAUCACCAUGCAGGUGGGCAUCUUUGGGAAGUGGGGCAAGGGGGGGAUAGGGAGGGGGGUAACACUUUGGGAACCGGUGGUCCCAGGUCGUUUCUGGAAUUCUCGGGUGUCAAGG | 0.106
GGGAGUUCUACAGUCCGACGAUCUCAAGUCCUGUGCUACACAUCGUAUGUACCGAAUCGGUUUUUGGUUUGGAAAGGAAAGUAUUAUGUUACGCCGUUCGGAUCUGCACUUCCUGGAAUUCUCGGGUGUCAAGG | -0.504
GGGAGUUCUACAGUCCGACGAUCGUCCUGUGCUACACAUCGUAUGUACCGAAUCGGGGUUUUGGGGUUUUGGGGUUUUGGGAAAGUAUUAUGUUACGCCGUUCGGAUCUGCACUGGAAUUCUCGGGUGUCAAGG | 0.163
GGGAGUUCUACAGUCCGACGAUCGCAGGAAGUAAAAACAAAUGGAAAUGCUUCGGAUAGUGGCAGGGGUGGGAAAUGCUAAGGAAAGGGUGGGAUGGGAGUGGGUAAAGAGUUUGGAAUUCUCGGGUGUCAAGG | 0.111
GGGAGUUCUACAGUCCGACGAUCGCAGGAAGUAAAAACAAAUGGAAAUGCUUCGGAUAGUGGCAGGGGUGGGGGUUGUUAAGGAAAGGGUGGGAUGGGAGUGGGUAAAGAGUUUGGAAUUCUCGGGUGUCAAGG | 0.296
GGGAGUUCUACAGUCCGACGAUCUAACUUUAGAGGAGGAUCUGAUGGAUAUGGCAGUGGACGUGGACUUGGGGAUGGCUAUAAUGGGUAUGGAGGAGGACCUGGAGGUGGCAAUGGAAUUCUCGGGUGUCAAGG | -0.731
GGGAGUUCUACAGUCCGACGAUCACCAUGCAGGUGGGCAUCUUUGGGAAGUGGGGCAAGGGGGAAAUAGGGAGGGGGGUAACACUUUGGGAACAGGUGGUCCCAGGUCGUUUCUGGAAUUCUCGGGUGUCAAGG | 0.425

Single results of other studies
Molecule | target or system | assay | system | conditions | endpoint | value
RPN2 (Homo sapiens, UniProt P04844) | DDOST (Homo sapiens, UniProt P39656) | cross-linking MS |  | hits only | interaction screen | cross-linked
IEDDEIIWV | HLA class I histocompatibility antigen, A alpha chain, allele A*80:01 (Homo sapiens, UniProt P04439) | peptide-MHC binding | peptide | concentration not given | binding | inactive
NUP214 (Homo sapiens, UniProt P35658) | NUP62 (Homo sapiens, UniProt P37198) | cross-linking MS |  | hits only | interaction screen | cross-linked
NOP56 (Homo sapiens, UniProt O00567) | SNU13 (Homo sapiens, UniProt P55769) | cross-linking MS |  | hits only | interaction screen | cross-linked
TIMM50 (Homo sapiens, UniProt Q3ZCQ8) | ATAD3A (Homo sapiens, UniProt Q9NVI7) | cross-linking MS |  | hits only | interaction screen | cross-linked

Repeated from above (series 2):
Strand | log2 enrichment
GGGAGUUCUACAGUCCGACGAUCACCAUGCAGGUGGGCAUCUUUGGGAAGUGGGGCAAGGGGGGGAUAGGGAGGGGGGUAACACUUUGGGAACCGGUGGUCCCAGGUCGUUUCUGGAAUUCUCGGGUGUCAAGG | 0.106
